Measurements pooled from the literature.
Every numbered part comes from another study and shows a few of its results, in no order.

Series 1
Target: Histone acetyltransferase KAT6A, both winged helices, GST fusion (KAT6A, Homo sapiens, UniProt Q92794, residues 1-181)
Technique: protein binding microarray
Form: double-stranded DNA, one strand shown
Matrix: in vitro
Tested at: not given
Setting: 8-mer, flanks averaged, mean of 2 arrays, mostly near background
Reference: not given
Direction: higher = stronger binding
Target sequence (chain): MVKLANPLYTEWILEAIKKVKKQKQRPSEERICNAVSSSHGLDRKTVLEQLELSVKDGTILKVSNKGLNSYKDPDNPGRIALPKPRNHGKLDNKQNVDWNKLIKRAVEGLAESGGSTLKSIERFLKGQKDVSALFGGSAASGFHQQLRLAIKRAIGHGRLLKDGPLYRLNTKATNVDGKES
| Oligonucleotide | E-score |
| --- | --- |
| CTTGTAAA | -0.105 |
| ACACCTCG | -0.00886 |
| AATGTACC | -0.0131 |
| ATGTTCAA | 0.102 |
| CCTGAGGA | -0.236 |
| CAGTCAAA | -0.0412 |
| ACTTCAGA | -0.00095 |
| GATCTAAA | -0.0808 |
| GGGGAGTA | -0.0872 |
| AGTTGTTG | -0.229 |
| ACATCAGC | 0.00843 |
| CTCGATCA | 0.00054 |
| GCCATCAC | 0.0136 |
| GAAGACAA | -0.103 |
| AGCCACCG | 0.113 |
| GCGGGTGA | 0.217 |

Series 2
Target: RNA binding protein fox-1 homolog 2, RRM domain, GST-SBP tag (RBFOX2, Homo sapiens, UniProt O43251-10, residues 100-194)
Technique: RNA Bind-n-Seq
Form: RNA
Matrix: in vitro
Tested at: 365 nM
Setting: natural RNA segment, single round, ends assumed
Reference: no-protein control
Direction: higher = stronger binding
Shared flanks, not repeated: GGGAGUUCUACAGUCCGACGAUC … UGGAAUUCUCGGGUGCCAA
Residues (chain): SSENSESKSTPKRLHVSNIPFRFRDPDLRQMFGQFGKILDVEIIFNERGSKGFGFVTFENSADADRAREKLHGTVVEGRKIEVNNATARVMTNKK
| Oligonucleotide | RBNS enrichment (R) |
| --- | --- |
| UGCAUUAUUUAAAAUGUUCAAAUUGAAUAGAUUAAAAAGUUUUUAAAUGCUAUUGCAUCAUAUAAUUUGCUAUUCAUCCACUAUGGCAUUGCAUAUCAAUCAGUUAAUAC | 0.46 |
| AGCCAGUUCUCCAAGUUCUUAACCUGUGGCACUGAAAGGAAUGUUGAGUUACCUCUUCAUGUUUUAGACAGCAAACCCUAUCCAUUAAAGUACUUGUUAGAACACUGAAA | 0.304 |
| GGGUUUUGAGCAGGCUGUUAUAGUGAGGAAUGUUCAUUUUUAAAUGUUCCUAACAGAUUUUGCUUUUGAAAAAUGCUUGUUACAUGAAUAAUUUGUGGACCAGGGAUUGC | 0.641 |
| AGUGUGAGCGAGAGUGUGUGUGUGUCCAUCUAAGUGUGUGUGAUGAAGGUGGGAUAAGGCUCCUCUGUUAGUGCUGGAAGCUCCUGUAAUUGCCGCAUGGAUCCCACUGU | 7.14 |
| UCAGAAUAUGCUCAUCCACUCCUUCAUCAUCCCACUAUCCGAGUCCUACUUCGUUCCCCCUUUGUAAGUCUCUGGAGGAUGUGACCAAGGUCUCCCGUGAGUGUCUGUCG | 0.264 |
| CGCUCAUGCGUACAACAGGGUAUGGACUAUCUGUAUGGUGCCCCAUUUUUGGCGGCCCGUAAGUAGGCUGGCUAGUCCAGGAUACUGUGGAAUAGCCACCUCUUGACCAG | 0.183 |
| AGCUAACUCAGACUCCAGUGAAGAUGCUGAUGACUGAAGCCCCAGCAUGGGCCCCAUUGCUUGGGCGGCUGCUGUAUUUUCAUUUACUCUGGCCCUUGGACUAUGGAAAC | 0.752 |
| GUUAAAUUGGGGUAUGUGGUUUGAUUGAUAAAAAGUUACCUCUCAGUAUUUUGUGUCACUGAGAAGCUUUACAAUGGAUGCUUUUGAAACAAGUAUCAGCAAAAGGAUUU | 1.21 |
| UGCUCAUUGUAACCAUCGUUCACCAGUGUCCGGCCCCUAGUAGGACCACACAUCACUGCCUGAACUCCUUUGGCAGAAGAACCCCACCAGACAUUGAGACAUUGUAUUUU | 0.366 |
| ACAAAUGGUGCUGUUGCAAACACUUUUUUUUUGAGAUGAAGUCUCGCGGUUGUCACCCGGGCUGGAGUGCAGUGGCGUGAUCUCGGCUCACUGCAACUUCCACCUCCUGG | 0.198 |
| CAGCAGGGGACUUGACUGCCCUGGGCGCCCUGCCCCUCCCGCUGCGUGUCCAGGUCCAAAGUGGAGAGCCUGCCUUUGGGUUUAGUUCCCGAAUCAGAAUCCCAUCUCAC | 0.333 |
| AAACCAGAAUAUGCAUUACUUUGGUUUAAUACUUAGUGCUAACAUUGAAACUGUUGGUGGUGAUGGAUUUUGUAGCUUGCUGCUUGUUUCACCACUGGUCAAAUUUUAAC | 1.22 |

Series 3
Target: Ras GTPase-activating protein-binding protein 1, full length (G3BP1, Homo sapiens, UniProt Q13283)
Chain of UniProt Q13283 (whole entry, looked up): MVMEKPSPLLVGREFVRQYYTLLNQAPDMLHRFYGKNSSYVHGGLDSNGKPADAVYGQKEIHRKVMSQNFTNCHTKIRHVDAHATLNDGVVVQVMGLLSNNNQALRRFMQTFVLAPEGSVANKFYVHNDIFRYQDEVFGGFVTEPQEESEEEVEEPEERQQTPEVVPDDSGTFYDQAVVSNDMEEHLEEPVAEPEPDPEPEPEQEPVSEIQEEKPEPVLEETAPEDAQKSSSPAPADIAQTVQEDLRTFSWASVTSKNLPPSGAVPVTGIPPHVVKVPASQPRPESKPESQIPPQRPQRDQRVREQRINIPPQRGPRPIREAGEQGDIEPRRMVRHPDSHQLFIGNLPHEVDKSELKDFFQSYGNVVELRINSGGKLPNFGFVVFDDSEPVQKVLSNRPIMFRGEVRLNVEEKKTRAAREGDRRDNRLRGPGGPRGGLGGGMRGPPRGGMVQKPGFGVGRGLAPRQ
Technique: RNA Bind-n-Seq
Form: RNA
Matrix: in vitro
Tested at: 200 nM
Setting: whole 134-nt RNA, ends assumed
Added: 150 mM LiCl
Reference: input library
Direction: higher = stronger binding
Library: 7-deaza-guanosine replaces G
Shared flanks, not repeated: GGGAGUUCUACAGUCCGACGAUC … UGGAAUUCUCGGGUGUCAAGG
| Oligonucleotide | log2 enrichment |
| --- | --- |
| CCUGUGCUACACAUCGUAUGUACCGAAUCGGGUUUUUUUGGGAAAAAAAGGGAAAAAGGGAAAGUAUUAUGUUACGCCGUUCGGAUCUGC | -1.66 |
| CUCAAGUCCUGUGCUACACAUCGUAUGUACCGAAUCGGUUUUUUUGGAGGUGGAAAGUAUUAUGUUACGCCGUUCGGAUCUGCACUUCCA | 0.229 |
| UAACUUUAGAGGAGCAUCUGAUGGAUAUGGCAGUGGACGUGGAUUUGGGGAUGGCUAUAAUGGGUAUGGAGGAGGACCUGGAGGUGGCAA | -0.231 |
| UGUGGCCGCAGGACGAGUACAUCGUGGAGUACUCACUAGAGUAUGGCUUCCUUCGCCUGUCGCAGGCCACCCGCCAGCGCCUGAGCAUCC | 0.928 |
| UUAAGUGUAUUGGAGCCCCAAGUUCUCAAUUAUUUGAGCCUCCGGGCGACAGAGCAAGAAAAGGUGAGUGGAUAGCGCAGGCAUAUUGGU | -0.334 |
| CUUUGUAAUGGGAACUGCCUCUUUCCUGUUGUUGUUAAUGAAAAUGUCAGAAACCAGUUAUGUGAAUGAUCUCUCUGAAUCCUAAGGGCU | -0.55 |
| UCUGAGCAAUUGAAUGCCCUAAACAAGGCUUACCAUGACCUUUGUGAUGGUUCUGCAAAUCAGCUUCAGCAGCUUCAGAGCCAGUUGGCU | -1.84 |
| GUCCUGUGCUACACAUCGUAUGUACCGAAUCGGGUUUGGGAAAAAGGGAAAAAAAGGGAAAGUAUUAUGUUACGCCGUUCGGAUCUGCAC | -0.0716 |

Series 4
Target: RING finger protein unkempt homolog, zinc fingers 1-6, SBP tag (UNK, Homo sapiens, UniProt Q9C0B0, residues 30-357)
Chain of UniProt Q9C0B0 (30-357, looked up): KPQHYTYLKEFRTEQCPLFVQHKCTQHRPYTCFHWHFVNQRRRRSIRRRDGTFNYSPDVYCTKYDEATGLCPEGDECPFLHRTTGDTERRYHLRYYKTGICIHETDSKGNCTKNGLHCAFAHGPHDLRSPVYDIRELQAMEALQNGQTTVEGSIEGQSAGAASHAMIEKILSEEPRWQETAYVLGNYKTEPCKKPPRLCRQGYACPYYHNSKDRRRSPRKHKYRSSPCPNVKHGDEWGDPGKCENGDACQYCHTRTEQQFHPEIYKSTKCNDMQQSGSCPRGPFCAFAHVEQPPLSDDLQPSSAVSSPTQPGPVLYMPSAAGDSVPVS
Technique: RNA Bind-n-Seq
Form: RNA
Matrix: in vitro
Tested at: 100 nM
Setting: RNA with constant flanks, vertebrate orthologous sites, ends assumed
Reference: input RNA pool
Direction: higher = stronger binding
Shared flanks, not repeated: GGGAGUUCUACAGUCCGACGAUC … CAACAGAGGAUUGAGCAUCA
| Oligonucleotide | bound/input enrichment [ratio] |
| --- | --- |
| GCACAUGCCGCUAUCACCAAAUGCCAACUGUCACUUUUCAAAUUUCAUUCAGAACCAUUUUAGUGUUUCCUAUUUCCCACCACUUUCAAUGAUGAAGUAGCCUAAGUUCUCCUUCUGACA | 1.64 |
| GACUGGAUGCCGUAUAUACCGCACCCAAGGCAGUGACUUCCACUUUCUACACGUUGUUAGUUUAAAGUCAUCUCUUAUUUCAGCGUCUAGACUGGAUUGUUAGUGCUACUACUCUUUGUA | 0.355 |
| UCGUGCCCCACUCUUGUGAGAGGGAGUGGGGAAUGCAGGUGACCCUCAGCUAUUCCAAUCCAGUUUUCUUUUUAAGAAUUACUGUAUUUAUUAUGACGAUGGUGACUCCCCGGUGCACAG | 0.56 |
| CUACUAUAAACAACUCAGGGCAGUAUUCUCGAUAUCCUUACAGUAACCUAAAUCAGGGAUUAGUUAACAAUACAGGGAUGAAUCAAAAUUUAGGCCUUACGAAUAAUACCCCAAUGAAUC | 1.63 |
| GACCUCUUGAACUCCUAACUUUCGAGCUGUGGCUGUUUUUGAUACUGAUUUUAUUUUCUUUACGACUUUCCCAUUUCCUGCCUUCUCUCCUUCUGUUCCCAAGGCUUGGCUUGUGGAUGG | 1.11 |
| UUUUUUAAAGUUUUUUAAUUUAUUUUUUUUUCUUUUGGGGGUAAAGUUCGCUCUACCAAAUAGUGAUCGUAACAAAUUGAUCUGUUAUGGAUGUUGCUAUAGUGACAUGCAGUUAUAUCU | 1.17 |
| AAAUAUACUUCAUGCCAUGGACUCCAUAUCGCACCGAUACUUUGAUAGAAUUUGCUUCUUUAGAGGACUUCCAAAAUGGACGCCAGCAGACGACAUAUAAACUGCCAAAUAGAGUGGAUG | 0.959 |
| UAUUAUUCAUUUGAUUAAAAUUAUUUAGAUAAGAAGUUAUUGUGUAUGUUUGCUUUCAAACAGCCUCCCUAUUUUUCUUCCUUUGUGAGGUCUCUCAUGCAUAGCAGAAUCUAUUAUGGA | 0.454 |

Series 5
Target: Interferon regulatory factor 3, full length, phosphomimetic (IRF3, Homo sapiens, UniProt Q14653, residues 1-427, S386D/S396D/S398D/S402D/T404D/S405D)
Technique: protein-binding microarray
Form: double-stranded DNA, one strand shown
Matrix: in vitro
Tested at: 2540 nM top
Setting: 60-bp whole probe
Added: salmon DNA 0.4 mg/ml
Reference: random background probes
Direction: higher = stronger binding
Shared flanks, not repeated: GCCTAGCAC … GTCTTGATTCGCTTGACGCTGCTG
Target sequence (chain): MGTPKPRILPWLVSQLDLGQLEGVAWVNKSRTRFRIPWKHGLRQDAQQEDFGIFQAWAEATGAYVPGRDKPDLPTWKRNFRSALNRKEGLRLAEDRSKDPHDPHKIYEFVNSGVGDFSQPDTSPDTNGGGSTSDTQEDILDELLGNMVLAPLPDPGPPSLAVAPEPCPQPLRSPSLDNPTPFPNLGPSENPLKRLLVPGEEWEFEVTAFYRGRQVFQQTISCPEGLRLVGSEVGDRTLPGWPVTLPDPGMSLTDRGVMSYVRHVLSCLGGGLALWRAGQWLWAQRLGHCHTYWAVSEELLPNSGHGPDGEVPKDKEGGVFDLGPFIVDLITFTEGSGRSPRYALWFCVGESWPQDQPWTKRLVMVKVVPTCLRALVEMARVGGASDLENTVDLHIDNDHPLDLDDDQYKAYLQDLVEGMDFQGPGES
| Oligonucleotide | fitted relative affinity [z-score] |
| --- | --- |
| TCAGAAATCACCCTTGGAACTGTGCTA | -0.0179 |
| TGTGCTTTCCTGATGGTCCTGTGCTAG | 1.21 |
| TCAACTCCCCAACTCGCACTGTGCTAG | 0.607 |
| ACCAAAATCAAGTCTGGGCTAGTGCTA | 0.199 |
| TTAGAACTGAGACTGGATTCGTGCTAG | -0.197 |
| GAAAACAAAGAAAATACAAAGTGCTAG | 0.626 |
| GACGGTTTCCACTTTCGGGACGTGCTA | 5.16 |
| GACGCACTGCTTATCCTGACGTGCTAG | -0.221 |
| GACGGTTTCGTCTATCGGGACGTGCTA | 2.58 |
| TGAGGTCTCCTTTTCCTTTAGTGCTAG | 4.91 |
| TTCCAATTCTCTTTTCACTTGTGCTAG | 3.7 |
| GACGGACAGGGGTTTCGGGACGTGCTA | 0.669 |
| TCATATGCCGACTTTGGAACTGTGCTA | 0.331 |
| TTAGATTCCAGTTTCTATTAGTGCTAG | 4.01 |
| GACGGTTTCAGTCTCGGGACGTGCTAG | 5.4 |
| TCAATTGTGGATCTTGCACTGTGCTAG | -0.011 |
| TCAAGTCTCTGTTCTTTACTGTGCTAG | 1.04 |
| GAGGGTTTCGGACTGGGGACGTGCTAG | 2.52 |
| GACGGTTTCGGTCTCCGGACGTGCTAG | 8.12 |

Series 6
Target: Sal-like protein 4, full length isoform A (SALL4, Homo sapiens, UniProt Q9UJQ4, residues 1-1053)
Chain of UniProt Q9UJQ4 (whole entry, looked up): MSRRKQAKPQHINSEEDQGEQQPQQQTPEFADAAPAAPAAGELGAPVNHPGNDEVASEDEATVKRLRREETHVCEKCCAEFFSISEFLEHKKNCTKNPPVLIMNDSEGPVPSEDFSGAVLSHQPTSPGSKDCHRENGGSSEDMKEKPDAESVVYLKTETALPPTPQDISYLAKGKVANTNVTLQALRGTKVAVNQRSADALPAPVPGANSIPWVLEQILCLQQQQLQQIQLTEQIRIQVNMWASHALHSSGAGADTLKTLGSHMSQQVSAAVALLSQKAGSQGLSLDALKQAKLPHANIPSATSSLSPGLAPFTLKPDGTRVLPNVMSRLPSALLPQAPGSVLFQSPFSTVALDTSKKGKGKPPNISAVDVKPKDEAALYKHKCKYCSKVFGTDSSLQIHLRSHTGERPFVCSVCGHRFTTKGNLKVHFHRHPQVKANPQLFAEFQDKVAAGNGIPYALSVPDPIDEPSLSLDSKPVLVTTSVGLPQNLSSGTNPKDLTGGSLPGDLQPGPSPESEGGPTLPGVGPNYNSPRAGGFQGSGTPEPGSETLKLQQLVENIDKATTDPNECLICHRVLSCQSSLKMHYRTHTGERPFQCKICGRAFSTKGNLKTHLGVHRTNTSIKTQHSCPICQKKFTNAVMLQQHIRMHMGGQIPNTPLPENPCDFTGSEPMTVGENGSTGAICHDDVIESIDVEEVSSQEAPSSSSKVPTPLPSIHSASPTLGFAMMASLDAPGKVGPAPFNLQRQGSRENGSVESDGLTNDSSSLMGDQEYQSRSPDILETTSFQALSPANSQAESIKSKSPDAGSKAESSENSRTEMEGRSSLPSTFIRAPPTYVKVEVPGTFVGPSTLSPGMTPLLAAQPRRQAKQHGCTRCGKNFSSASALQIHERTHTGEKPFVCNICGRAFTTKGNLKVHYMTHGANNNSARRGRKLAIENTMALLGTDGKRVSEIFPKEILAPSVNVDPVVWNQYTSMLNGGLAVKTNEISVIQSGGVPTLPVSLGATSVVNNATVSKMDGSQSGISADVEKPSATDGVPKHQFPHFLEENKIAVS
Technique: universal PBM
Form: double-stranded DNA, one strand shown
Matrix: in vitro
Tested at: 600 nM
Setting: 8-mer, flanks averaged, mean of replicates
Direction: higher = stronger binding
| Oligonucleotide | E-score |
| --- | --- |
| ACTGTGGC | -0.289 |
| ATGAGGCC | -0.178 |
| ATCGAACG | -0.00269 |
| ATCTGAGG | -0.0723 |
| GTAGTACA | -0.00255 |
| AGTCGTCC | -0.123 |
| ATTCCACG | -0.00585 |
| AAGATACC | 0.0709 |
| CGCAGTAC | -0.218 |
| GGGACGTA | -0.0797 |
| ACCTGGTG | -0.127 |
| CAAATACG | 0.11 |
| GACCGGTC | -0.256 |
| TGCAGGAA | 0.00864 |
| GGTGGCAA | -0.179 |
| CCTGGTGC | -0.229 |
| CAACTGTC | -0.112 |
